Experimental data gathered from unrelated publications.
Every numbered part comes from another study and shows a few of its results, in no order. Changes are numbered by the printed parent chain.

Set 1
Target: Sal-like protein 4, full length isoform B (SALL4, Homo sapiens, UniProt Q9UJQ4-2, residues 1-616)
Technique: universal PBM
Form: double-stranded DNA, one strand shown
Matrix: in vitro
Tested at: not given
Setting: 8-mer, flanks averaged, mean of replicates
Reading: higher = stronger binding
Sequence | E-score
CGGGAAAG | -0.177
ATTCGATC | 0.0103
CACGGTGA | -0.0799
ATCGCACA | 0.0889
AACAAATC | 0.215
AGCAATAG | 0.00421
CCTTCTCG | -0.19
TGGCTGAA | -0.0378
CCTGCACA | -0.17
CAGTCGAG | -0.146
ATGCTTCA | 0.0941
ACGCTCTC | -0.13
TGGAATAA | 0.158
ACGGAGAC | -0.0462
AAATGTTG | 0.178

Set 2
Target: Ras GTPase-activating protein-binding protein 1, RRM domain (G3BP1, Homo sapiens, UniProt Q13283)
Sequence of UniProt Q13283 (whole entry, looked up): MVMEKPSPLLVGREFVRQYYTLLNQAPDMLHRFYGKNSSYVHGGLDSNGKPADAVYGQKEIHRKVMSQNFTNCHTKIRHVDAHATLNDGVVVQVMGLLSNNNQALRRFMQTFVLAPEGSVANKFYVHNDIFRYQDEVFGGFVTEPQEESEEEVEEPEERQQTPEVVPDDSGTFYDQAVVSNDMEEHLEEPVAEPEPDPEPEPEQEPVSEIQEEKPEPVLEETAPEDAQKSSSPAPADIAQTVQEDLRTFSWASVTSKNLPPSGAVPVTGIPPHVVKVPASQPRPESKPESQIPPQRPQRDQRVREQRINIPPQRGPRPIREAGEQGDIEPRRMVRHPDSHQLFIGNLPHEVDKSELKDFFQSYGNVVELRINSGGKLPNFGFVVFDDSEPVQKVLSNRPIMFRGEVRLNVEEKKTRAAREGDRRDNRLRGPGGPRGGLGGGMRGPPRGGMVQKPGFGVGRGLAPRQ
Technique: RNA Bind-n-Seq
Form: RNA
Matrix: in vitro
Tested at: 1 µM
Setting: whole 134-nt RNA, ends assumed
With: 150 mM KCl
Baseline: input library
Reading: higher = stronger binding
All sequences stand within: GGGAGUUCUACAGUCCGACGAUC … UGGAAUUCUCGGGUGUCAAGG
Sequence | log2 enrichment
ACCAUGCAUGUGGGCAUCUUUGGGAAGUGGGGCAAGGGGGGGAUAGGGAGGGGGGUAACACUUUGGGAACAGGUGGUCCCAGGUCGUUUC | -0.526
CUCAAGUCCUGUGCUACACAUCGUAUGUACCGAAUCGGGCCGGCCGGGGCCGGAAAGUAUUAUGUUACGCCGUUCGGAUCUGCACUUCCA | -0.341
CCUGUGCUACACAUCGUAUGUACCGAAUCGGGGUUUUUUUGGUUUUUUUGGUUUUUUUGGAAAGUAUUAUGUUACGCCGUUCGGAUCUGC | -0.105
CUCAAGUCCUGUGCUACACAUCGUAUGUACCGAAUCGGGGAAGGGAAGGGAAGGAAAGUAUUAUGUUACGCCGUUCGGAUCUGCACUUCC | -0.238
ACUGAUGAGAGCCUGAGGAGCCAUUUUGAGCAAUGGGGAACGCUCACGGACUGUGUGGUAAGAUUUGGAAGGGACAAAGCAGUAAAACAG | -0.0793
CAAGUCCUGUGCUACACAUCGUAUGUACCGAAUCGGUUUUUUUGGAAAAAGGUGGAAAGUAUUAUGUUACGCCGUUCGGAUCUGCACUUC | -0.426
GCAGGAAGUAAAAACAAAUGGAAAUGCUUCGGAUAGUGGCAGGGGUGGGGGUUGCUAAGGAAAGGGUGGGAUGGGAGCGGGUAAAGAGUU | 1.26

Set 3
Target: Interferon regulatory factor 7, full length, phosphomimetic (IRF7, Homo sapiens, UniProt Q92985, residues 1-503, S101K/S471D/S472D/S475D/S476D/S477D/S483D/S484D/S487D)
Sequence of UniProt Q92985 (whole entry, unmodified, looked up): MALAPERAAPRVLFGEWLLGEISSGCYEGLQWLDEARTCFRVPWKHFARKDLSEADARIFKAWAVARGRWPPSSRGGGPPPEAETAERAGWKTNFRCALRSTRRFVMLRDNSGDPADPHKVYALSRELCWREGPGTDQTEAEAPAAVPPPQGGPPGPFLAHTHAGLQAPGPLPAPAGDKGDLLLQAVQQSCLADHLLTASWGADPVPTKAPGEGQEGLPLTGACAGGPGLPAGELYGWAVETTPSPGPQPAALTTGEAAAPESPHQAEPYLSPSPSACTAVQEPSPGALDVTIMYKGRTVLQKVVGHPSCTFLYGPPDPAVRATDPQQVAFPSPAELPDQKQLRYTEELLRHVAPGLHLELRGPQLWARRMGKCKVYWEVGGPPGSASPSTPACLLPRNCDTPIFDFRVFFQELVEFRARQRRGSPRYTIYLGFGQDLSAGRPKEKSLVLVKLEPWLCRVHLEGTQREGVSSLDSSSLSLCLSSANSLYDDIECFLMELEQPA
Technique: protein-binding microarray
Form: double-stranded DNA, one strand shown
Matrix: in vitro
Tested at: 250 nM
Setting: 60-bp whole probe
With: salmon DNA 0.4 mg/ml
Baseline: random background probes
Reading: higher = stronger binding
All sequences stand within: GCCTAGCAC … GTCTTGATTCGCTTGACGCTGCTG
Sequence | log fluorescence
TTAGATCTCTGTTTCGATTAGTGCTAG | 3.99 z-score
ATAGGACTGGACTTTCGGTTAGTGCTA | 0.613 z-score
GACGATTTCTGGTTTCGAGACGTGCTA | 5.06 z-score
GACGGTTTCGGGACTGGGCACGTGCTA | 3.72 z-score
TCTCCTCCAGGTTCTCTGACAGTGCTA | 0.166 z-score
TTAGGTTTCGGTTTCGCTTAGTGCTAG | 14.7 z-score
GACGGTATCCACTATCGGGACGTGCTA | 0.0333 z-score
GACGAACTGAGTTTCAAGACGTGCTAG | 0.0502 z-score
TCAGTTTTAAATAGGGCACTGTGCTAG | 0.67 z-score
GACGGTTCTGGTTTCGGGACGTGCTAG | 4.29 z-score
GAAGAACTGAGACTGGAGACGTGCTAG | -0.282 z-score
TCTTCCTTTACTTTCTTTTTGTGCTAG | 2.93 z-score
TTAGATTTTAGACTGGATTAGTGCTAG | -0.0794 z-score
TTAGCTCTCCTACTGCTTTAGTGCTAG | -0.00727 z-score
GACGATTTCAGTCTCGCGACGTGCTAG | 0.057 z-score

Set 4
Target: RING finger protein unkempt homolog, zinc fingers 1-6, SBP tag (UNK, Homo sapiens, UniProt Q9C0B0, residues 30-357)
Sequence of UniProt Q9C0B0 (30-357, looked up): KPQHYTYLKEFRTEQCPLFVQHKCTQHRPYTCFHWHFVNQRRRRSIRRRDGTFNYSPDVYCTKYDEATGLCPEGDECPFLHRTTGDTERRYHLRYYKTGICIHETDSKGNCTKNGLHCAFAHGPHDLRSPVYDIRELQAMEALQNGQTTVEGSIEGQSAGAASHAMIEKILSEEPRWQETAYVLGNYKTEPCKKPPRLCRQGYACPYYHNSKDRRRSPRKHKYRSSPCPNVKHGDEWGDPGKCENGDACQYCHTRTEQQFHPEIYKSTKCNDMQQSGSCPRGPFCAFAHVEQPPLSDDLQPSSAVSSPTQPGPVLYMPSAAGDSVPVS
Technique: RNA Bind-n-Seq
Form: RNA
Matrix: in vitro
Tested at: 100 nM
Setting: RNA with constant flanks, vertebrate orthologous sites, ends assumed
Baseline: input RNA pool
Reading: higher = stronger binding
All sequences stand within: GGGAGUUCUACAGUCCGACGAUC … CAACAGAGGAUUGAGCAUCA
Sequence | bound/input enrichment [ratio]
GUUGUGACCCCUUUAACAUACAUAAAAAACUAGCCAAAAAAAACUUGCAUGUAAUUGACUUAGAUGAUGCCACUUUCCUGAGUGCAAAAUUUGGCAGACAGCUUGUACCUGGUUGGAAGC | 1.13
GACCUCCUGAACUUCUGGCUUUCAAGCUGUGGCUGUUUGACAUACUGGUUUUAUUUUCUCUACAAUUUUCCCACCUUUCUUCCCCUGUUCCUAAGGUUUGACUCAUGGAUCUUACUCUUC | 1.02
AGAAAAUUUUAACCAAGAAUCUGAAGGUAGAAAUACAGGACUGUGGUUGUCUUCCUCAUUUAGAAAUAGAUGUACUCCCUUGUUCUCUAGAAGGAGGCGAGAAGGAAGAGAUGAAUCUUC | 0.706
GCACUGCCCAUGCAGAUUGCACAACACUGAAUGCAAAGUCAUAAUUUUCAUAGUCACAGUAAGGUAGCUUUAGGGCAAUAUCACCAUGGUUUUUCUCAUGUGCAGUUUUUUAAAAUGUAC | 0.624
AUCAGGAACAGCAGAGGCUGUUUGAGCUUGGGGAAAUGAGCUUUGCUUUUUAUUUUUGAAUAGGAUACUUUUAUAUGAUGGGUGCUUUGAGUGUGAAUGCAGCAGGCUCUUCAUUUCAGA | 1.17
UCCUGUACAGCAAGGACAGGGGGACCCCCCUCCGCAUUUCCCAGGAGCAAAAAGGCCAGGGAGAGCCCAGACACAUCCAGUUAUACGGUUCAGUUUUUGCUUUCUAUUAUUUUGUGUGUG | 0.376

Set 5
Target: Histone acetyltransferase KAT6A, both winged helices, GST fusion (KAT6A, Homo sapiens, UniProt Q92794, residues 1-181)
Technique: protein binding microarray
Form: double-stranded DNA, one strand shown
Matrix: in vitro
Tested at: not given
Setting: 8-mer, flanks averaged, mean of 2 arrays, mostly near background
Baseline: not given
Reading: higher = stronger binding
Target sequence (chain): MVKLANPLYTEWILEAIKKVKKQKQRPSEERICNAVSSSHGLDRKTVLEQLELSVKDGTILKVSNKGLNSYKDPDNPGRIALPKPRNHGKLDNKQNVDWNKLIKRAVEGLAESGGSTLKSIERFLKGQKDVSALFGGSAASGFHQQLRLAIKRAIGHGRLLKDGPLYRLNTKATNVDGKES
Sequence | E-score
CGGCTACC | 0.22
GTATCCTA | -0.0854
TGGACAAA | -0.101
ACTGATGA | -0.191
ACGTGAGG | -0.0865
GGTTGCTA | -0.0361
ATCAACAG | 0.00522
ACGTCTTA | -0.0838
AGACCTCA | -0.0679
GCTGAGAC | -0.112
AGCGTGTA | 0.202
TCTCACAA | 0.00253
CGGCAAAG | 0.205
AGGGGTCC | -0.0975
AGATTTCC | -0.142

Set 6
Target: ABI1, truncated, D143A, DHFR fusion (Arabidopsis thaliana)
Technique: DHFR PCA, deep sequencing
Matrix: yeast
Setting: methotrexate growth selection, single substitutions
With: (+)-ABA 4.8 µM
Baseline: wild-type fitted maximum
Reading: higher = stronger binding
Starting sequence: PYL1, truncated, DHFR fusion (Arabidopsis thaliana); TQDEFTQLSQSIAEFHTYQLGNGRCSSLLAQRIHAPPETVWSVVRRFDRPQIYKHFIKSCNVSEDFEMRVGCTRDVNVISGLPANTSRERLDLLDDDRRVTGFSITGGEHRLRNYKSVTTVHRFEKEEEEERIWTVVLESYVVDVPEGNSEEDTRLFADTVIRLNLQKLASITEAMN; partner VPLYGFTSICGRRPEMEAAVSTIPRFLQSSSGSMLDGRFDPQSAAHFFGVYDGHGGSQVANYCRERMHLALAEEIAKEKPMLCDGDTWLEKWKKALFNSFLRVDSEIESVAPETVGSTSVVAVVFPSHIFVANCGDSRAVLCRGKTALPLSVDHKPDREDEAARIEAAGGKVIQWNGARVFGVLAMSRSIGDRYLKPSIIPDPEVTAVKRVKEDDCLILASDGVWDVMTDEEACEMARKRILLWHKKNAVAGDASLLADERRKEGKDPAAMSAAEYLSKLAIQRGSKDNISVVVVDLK
Substitution | relative binding score [%]
A158W | -0.822
T73A | 31.6
Q19K | 81.3
Q31H | 44.1
I33K | -14.7
V161Q | 2.3
Y115F | 55.3
V142M | 56.5
S87R | 37.3
L91P | 14.2
L94E | -4.81
M176A | 64.9
M176R | 64.8

A few entries again (set 1):
Sequence | E-score
ATGCTTCA | 0.0941
ATTCGATC | 0.0103
CCTGCACA | -0.17
ATCGCACA | 0.0889
TGGAATAA | 0.158
